Experimental data collected from several papers.
Protocols differ between the studies behind these lines. ± gives the spread as reported.

| Substance | assay | test system | conditions | scale | endpoint | value |
| --- | --- | --- | --- | --- | --- | --- |
| C=CC1=C(C(=O)O)N2C(=O)[C@@H](NC(=O)/C(=N\OCC(=O)O)c3csc(N)n3)[C@H]2SC1 | mitochondrial swelling | BALB/cByJ female mouse liver mitochondria | 30 min, added: succinate + rotenone | relative to: CaCl2 maximal swelling | EC20 | > 400 µM |
| CC(C)C[C@H](NC(=O)CNC(=O)c1cc(Cl)ccc1Cl)B(O)O |  | human, plasma | intravenous bolus, 0.5 mg/m^2, day 15 |  | C0 | 56.3 ng/mL |
| Nc1nc2ncc(CNc3ccc(C(=O)N[C@@H](CCC(=O)O)C(=O)O)cc3)nc2c(=O)[nH]1 | cytochrome c release, ELISA | BALB/cByJ female mouse liver mitochondria | 30 min | relative to: alamethicin maximal release | EC20 | > 400 µM |
| NC(=O)CC[C@@H]1NC(=O)[C@H](Cc2ccccc2)NC(=O)[C@H](Cc2ccc(O)cc2)NC(=O)CCSSC[C@@H](C(=O)N2CCC[C@H]2C(=O)N[C@H](CCCN=C(N)N)C(=O)NCC(N)=O)NC(=O)[C@H](CC(N)=O)NC1=O | UPLC-MS/MS | human plasma | 156.23 pg/mL, 30 days, -20 °C |  | long-term stability | 92.7% |
| RLQLKL | substrate | peptide, mouse tumour extract 2% | 5 µM, 4 h, 37 °C |  | cleavage | > 90% |
| Cc1cc(SCc2cc(=O)[nH][nH]2)c(Cl)cc1Cl |  | human liver microsomes | 5 µM, pH 7.4, without NADPH |  | intrinsic clearance | 16.2 mL/min/kg |
| Cc1cc(=O)n(-c2ccccc2)n1C | cytochrome c release, ELISA | BALB/cByJ female mouse liver mitochondria | 30 min | relative to: alamethicin maximal release | EC20 | > 400 µM |
| CNC(=O)c1ccc(-c2cnc3ncc(Cc4ccc5ncccc5c4)n3n2)cc1F |  | human, mild hepatic impairment (Child-Pugh A), plasma | oral, 200 mg single dose |  | Vz/F (mean) | 366 L |
| COC(=O)C[C@](O)(CCCC(C)(C)O)C(=O)O[C@@H]1C(OC)=C[C@]23CCCN2CCc2cc4c(cc2[C@H]13)OCO4 |  | CD1 mouse, bone marrow | oral, 1 mg/kg, 24 h, below quantification limit 1.00 ng/mL |  | tissue concentration | not detected |
| CS(=O)(=O)n1cc2c(n1)CN([C@H]1CO[C@H](c3cc(F)ccc3F)[C@@H](N)C1)C2 |  | healthy Japanese men, plasma | oral, 25 mg once weekly, day 15 |  | Ctrough | 16.4 nM |
| CC[C@H](C)[C@H](NC(=O)[C@H](CCCCN)NC(=O)[C@@H](NC(=O)[C@H](CC(N)=O)NC(=O)[C@H](CCCNC(=N)N)NC(=O)[C@H](CCCNC(=N)N)NC(=O)[C@H](CC(N)=O)NC(=O)[C@H](CCCNC(=N)N)NC(=O)[C@H](CCCNC(=N)N)NC(=O)[C@@H](NC(=O)[C@H](CO)NC(=O)[C@@H](NC(=O)[C@H](CS)NC(=O)[C@H](CCCCN)NC(=O)[C@@H](N)CCCNC(=N)N)[C@@H](C)CC)C(C)C)[C@@H](C)CC)C(=O)N[C@@H](CS)C(=O)N[C@@H](CC(N)=O)C(=O)O | LC-MS | PBS | 0.1 mg/mL |  | single disulfide form | 98% |
| Oc1ccc(/C=C/c2cc(O)cc(O)c2)cc1 | cytochrome c release, ELISA | BALB/cByJ female mouse liver mitochondria | 30 min | relative to: alamethicin maximal release | EC20 | > 200 µM |
| CC(C)C[C@H]1C(=O)N2CCC[C@H]2[C@]2(O)O[C@](NC(=O)[C@@H]3C=C4c5cccc6[nH]c(Br)c(c56)C[C@H]4N(C)C3)(C(C)C)C(=O)N12 |  | Sprague-Dawley rat, male, plasma | intravenous, 0.1 mg/kg, added: DAL 1.7 mg/kg and HAL 0.7 mg/kg |  | AUMC | 4460 ± 1460 µg·h²/L |
| CC(=O)Oc1ccccc1C(=O)O | cytochrome c release, ELISA | BALB/cByJ female mouse liver mitochondria | 30 min | relative to: alamethicin maximal release | EC20 | > 200 µM |
| Cc1cc(-c2cc(OC(=O)c3ccccc3)ccc2Cl)cc2nnc(Nc3ccc(OCCN4CCCC4)cc3)nc12 |  | C57BL/6 mouse, sclera/choroid | topical, 1% |  | Tmax | 1 h |
| OC[C@H]1O[C@@](CO)(O[C@H]2O[C@H](CO)[C@@H](O)[C@H](O)[C@H]2O)[C@@H](O)[C@@H]1O | mitochondrial swelling | BALB/cByJ female mouse liver mitochondria | 30 min, added: succinate + rotenone | relative to: CaCl2 maximal swelling | EC20 | > 800 µM |
| CCCC[C@H](NC(=O)CN1CCC(NC(=O)CN2CCN(CC(=O)O)CCN(CC(=O)O)CCN(CC(=O)O)CC2)CC1)C(=O)N[C@H]1CC(=O)NCCCC[C@@H](C(N)=O)N(C)C(=O)[C@H](Cc2c[nH]c3ccccc23)N(C)C(=O)[C@H](CCCNC(=N)N)N(C)C(=O)[C@@H](Cc2ccccc2)NC(=O)[C@H](Cc2c[nH]cn2)N(C)C1=O [gallium-68 labelled] |  | C57BL/6J mice with B16-F10 melanoma, tumour over bone | intravenous, 1 h, added: MC1R inhibitor BMS 470539 0.5 mg co-injected |  | tumour to tissue ratio | 4.19 ± 1.8 |
| CCCCC1(CCCC)CN(c2ccccc2)c2cc(SC)c(OCC(=O)N[C@@H](C(=O)NCC(=O)O)c3ccccc3)cc2S(=O)(=O)C1 |  | human, plasma | oral, 10 mg once daily, day 14, geometric mean |  | AUC(0-t) | 1.36 ng·h/mL |
| CC1=C(COc2ccc(C(=O)O)cc2)C(=O)c2ccccc2C1=O | cyclic voltammetry | DMSO | first wave, vs Ag/AgCl |  | cathodic peak potential | -0.628 V |

| Substance | assay | test system | conditions | scale | endpoint | value |
| --- | --- | --- | --- | --- | --- | --- |
| CN1CCN(CCCN2c3ccccc3Sc3ccc(C(F)(F)F)cc32)CC1 | in situ brain perfusion | rat | no efflux inhibition |  | log intrinsic permeability | -3 |
| O=C1c2c(O)ccc(O)c2C(=O)c2c(NCCNCCO)ccc(NCCNCCO)c21 | cytochrome c release, ELISA | BALB/cByJ female mouse liver mitochondria | 30 min | relative to: alamethicin maximal release | EC20 | > 400 µM |
| CC(=O)N[C@@H](Cc1ccccc1)C(=O)N[C@H]1CCCNC(=O)[C@H](CCCNC(=N)N)NC(=O)[C@H](Cc2c[nH]c3ccccc23)NC(=O)[C@@H](CC2CCCCC2)NC(=O)[C@@H]2CCCN2C1=O |  | C57BL/6J mice, spinal cord | oral, 1 mg/kg |  | elimination half-life | 1.57 h |
| CS(=O)(=O)n1cc2c(n1)CN([C@H]1CO[C@H](c3cc(F)ccc3F)[C@@H](N)C1)C2 |  | healthy male human, plasma | oral, 400 mg, fasted, geometric mean |  | AUC(0-24h) | 145 µM·h |
| CCCC[C@H](NC(C)=O)C(=O)N[C@H]1CCC(=O)NC[C@@H](C(=O)N[C@@H](Cc2c[nH]c3ccccc23)C(N)=O)NC(=O)[C@H](CCCNC(=N)N)NC(=O)[C@@H](Cc2ccccc2)NC(=O)[C@H](Cc2c[nH]cn2)NC1=O |  | Sprague Dawley rats, male, plasma | subcutaneous, 25.0 mg/kg daily, day 28 |  | Cmax | 1050 ng/mL |
| CNCc1ccc(-c2[nH]c3cc(F)cc4c3c2CCNC4=O)cc1 |  | human patients, plasma | oral, 360 mg twice daily, day 1, 12 h, arithmetic mean |  | AUC(0-t) | 4860 ng·h/mL |
| CC(C)C[C@H](NC(=O)[C@H](CCc1ccccc1)NC(=O)CN1CCOCC1)C(=O)N[C@@H](Cc1ccccc1)C(=O)N[C@@H](CC(C)C)C(=O)[C@@]1(C)CO1 | LC-MS | human, plasma | intravenous push, 20 mg/m^2 |  | Vss | 140 L |
| [2H]C([2H])([2H])Oc1cc2c(cc1OC([2H])([2H])[2H])C1CC(=O)C(CC(C)C)CN1CC2 (stereo not shown) | item: deuterated β-HTBZ | healthy human volunteers, plasma | oral, 18 mg single dose, standard meal |  | dose-normalized AUC(0-t) | 5.2 ng·h/mL |
| Cn1c(-c2ccc(C(N)=O)cc2F)nnc1C(C)(C)Oc1c(F)cc(Cl)cc1F |  | healthy young Japanese subjects, plasma | oral, 50 mg once daily, day 18, 14 days dosing |  | half-life range | 12.3 to 31.7 h |
| C#C[C@]1(CO)O[C@@H](n2cnc3c(N)nc(F)nc32)C[C@@H]1O |  | human, plasma | oral, 10 mg once weekly, week 3 |  | AUC(0-168 h) | 0.867 µM·h |
| C[C@]12CC[C@@H]3c4ccc(O)cc4CC[C@H]3[C@@H]1C[C@@H](O)[C@@H]2O | GC-MS | breast cancer women on NSAI, serum | vaginal, 0.03 mg daily, 4 h, day 28 |  | minimum serum concentration | 0 ng/mL |
| COc1cc(CO)c(-c2ccc3c(c2O)[C@@H](C)N[C@H](C)C3)c2cccc(O)c12 | metabolic stability | male rat, liver microsomes | 1 µM |  | microsomal CLint | < 11.6 µL/min/mg |
| CCCC(=O)OCC1OC(OC(=O)CCC)C(NC(C)=O)[C@@H](OC(=O)CCC)[C@@H]1OC(=O)CCC (stereo partly shown) | sialic acid production | fetal bovine serum | added: 100% serum pre-incubation |  | serum stability time | 2 to 4 h |
| C1CCC(C(CC2CCCCN2)C2CCCCC2)CC1 (stereo not shown) | cytochrome c release, ELISA | BALB/cByJ female mouse liver mitochondria | 30 min | relative to: alamethicin maximal release | EC20 | < 25 µM |
| CC(=O)N[C@H](CSSC[C@H](N)C(=O)O)C(=O)N[C@H](C)C(=O)N[C@H](CCCNC(=N)N)C(=O)N[C@H](CCCNC(=N)N)C(=O)N[C@H](CCCNC(=N)N)C(=O)N[C@H](C)C(=O)N[C@H](CCCNC(=N)N)C(N)=O |  | human whole blood | 5 µM, 37 °C, added: SAPC 2.5 µM |  | SAPC conjugation rate constant | 0.007 min⁻¹ |
| CS(=O)(=O)Nc1ccc(C(=O)O[C@@H](Cc2c(Cl)c[n+]([O-])cc2Cl)c2ccc(OC(F)F)c(OCC3CC3)c2)cc1OCC1CC1 |  | human, plasma | inhaled, 2000 µg single dose, single-dose dry powder inhaler |  | tmax | 2 h |
| O=C([O-])CN1CCN(CC(=O)[O-])CCN(CC(=O)[O-])C(Cc2ccc([N+](=O)[O-])cc2)CN(CC(=O)[O-])CC1.[67Ga+3] (stereo not shown) | RP-TLC | murine plasma | 3 h, 37 °C, 5% CO2 |  | intact radiolabelled complex | 97.6 ± 0.3% |
| CNC(=O)c1cc(Oc2ccc(NC(=O)Nc3ccc(Cl)c(C(F)(F)F)c3)cc2)ccn1 | LC-MS/MS | nude mouse subcutaneous tumour model, tumour tissue | intratumoral, 2 mg/kg, PDC 1 miR-3609 |  | t1/2 | 47.1 ± 3.54 h |

Some of these lines once more:
| Substance | assay | test system | conditions | scale | endpoint | value |
| --- | --- | --- | --- | --- | --- | --- |
| CC(C)C[C@H]1C(=O)N2CCC[C@H]2[C@]2(O)O[C@](NC(=O)[C@@H]3C=C4c5cccc6[nH]c(Br)c(c56)C[C@H]4N(C)C3)(C(C)C)C(=O)N12 |  | Sprague-Dawley rat, male, plasma | intravenous, 0.1 mg/kg, added: DAL 1.7 mg/kg and HAL 0.7 mg/kg |  | AUMC | 4460 ± 1460 µg·h²/L |
| CC(=O)Oc1ccccc1C(=O)O | cytochrome c release, ELISA | BALB/cByJ female mouse liver mitochondria | 30 min | relative to: alamethicin maximal release | EC20 | > 200 µM |
| Cc1cc(-c2cc(OC(=O)c3ccccc3)ccc2Cl)cc2nnc(Nc3ccc(OCCN4CCCC4)cc3)nc12 |  | C57BL/6 mouse, sclera/choroid | topical, 1% |  | Tmax | 1 h |
| OC[C@H]1O[C@@](CO)(O[C@H]2O[C@H](CO)[C@@H](O)[C@H](O)[C@H]2O)[C@@H](O)[C@@H]1O | mitochondrial swelling | BALB/cByJ female mouse liver mitochondria | 30 min, added: succinate + rotenone | relative to: CaCl2 maximal swelling | EC20 | > 800 µM |
